Measured values gathered from unrelated publications.
Protocols differ between the studies behind these lines. “And” joins repeats or separate records; there may be more than shown. ± marks the error that the study gave.
UniProt Q70CQ1, sequence (whole entry, looked up): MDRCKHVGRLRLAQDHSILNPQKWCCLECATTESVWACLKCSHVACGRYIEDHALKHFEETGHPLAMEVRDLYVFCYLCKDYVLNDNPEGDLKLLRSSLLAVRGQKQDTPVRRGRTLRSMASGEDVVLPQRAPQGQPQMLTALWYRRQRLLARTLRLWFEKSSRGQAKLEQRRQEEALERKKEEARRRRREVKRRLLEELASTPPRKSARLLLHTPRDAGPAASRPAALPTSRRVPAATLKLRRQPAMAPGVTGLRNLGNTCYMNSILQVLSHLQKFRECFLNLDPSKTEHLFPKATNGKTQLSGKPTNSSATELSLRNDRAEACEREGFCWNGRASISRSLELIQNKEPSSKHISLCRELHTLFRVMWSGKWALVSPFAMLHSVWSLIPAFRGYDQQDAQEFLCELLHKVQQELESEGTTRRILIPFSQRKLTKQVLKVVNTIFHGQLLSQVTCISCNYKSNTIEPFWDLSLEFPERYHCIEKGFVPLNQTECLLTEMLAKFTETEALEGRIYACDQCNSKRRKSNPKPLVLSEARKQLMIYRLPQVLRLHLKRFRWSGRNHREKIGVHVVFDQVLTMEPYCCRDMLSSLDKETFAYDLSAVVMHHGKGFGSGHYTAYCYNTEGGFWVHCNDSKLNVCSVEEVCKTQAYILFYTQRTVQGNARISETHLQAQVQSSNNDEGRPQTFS

For CCO[C@H]1CCN(Cc2c(OC)cc(C)c3[nH]ccc23)[C@H](c2ccc(C(=O)O)cc2)C1, “incidence of GGT increase” read 0% (PNH patients, active haemolysis; oral, 25 mg, 4 weeks, treatment).
For CCCCC(CC)COC(=O)c1ccc(O)cc1 (stereo not drawn), the mass balance was 13% (empty Transwells without cells; 5 µM, 60 min, apical to basolateral).
C[C@@H](N)C1CCN(S(=O)(=O)c2cccc3cnccc23)CC1: “participants with orthostatic hypotension” 0% (healthy volunteers; 25 mg, fasted).
C=CCN1CC(=O)N2[C@@H](Cc3ccc(O)cc3F)C(=O)N(Cc3cccc(N4CC(N5CCN(CC)CC5)C4)n3)C[C@@H]2N1C(=O)NCc1ccccc1 gave a treatment-related diarrhoea of 0% (advanced solid tumour patients; oral, 10 mg twice daily, any grade, dose-escalation).
CC#CC(=O)N1CCC[C@H]1c1nc(-c2ccc(C(=O)Nc3ccccn3)cc2)c2c(N)nccn12 — result for “cysteine adduct formation”: 79% (PBS; 100 µM, 23 h, pH 7.45, 37 °C, added: cysteine 10 mM).
For O=C1CC[C@H](N2Cc3cc(N4CCN(CC5CCN(c6ccc([C@@H]7c8ccc(O)cc8CC[C@@H]7c7ccccc7)cc6)CC5)CC4)ccc3C2=O)C(=O)N1, “hepatic clearance, fu-corrected” read 19.8 mL/min/kg (Sprague-Dawley rat).
For Cc1cc(-c2nccc3c2ccn3CC(=O)Nc2ccc(-c3cnccn3)cn2)ccn1, “general disorder TEAEs” read 16.7% (healthy human volunteers; oral, 7 mg single dose, single ascending dose).
O=C(O)CN1CCCN2CCN(CC(=O)O)CCCN(CC1)Cc1cccc(n1)C2 gave an intact complex of 95% (64Cu complex; 2 h, pH 7.4, 37 °C, added: DOTA excess).
COc1ccccc1NC(=O)CSc1nnc(-c2ccc(F)cc2)n1C gave a logD of 2.48 (octanol/buffer; pH 7.4).
With CC1(C)OC[C@@H](c2ccc3ccccc3c2)N[C@@H]1c1cccc(F)c1 the logD was greater than 4.7 (shake-flask, 1-octanol/buffer; pH 7.4).
For O=C(O)CCC(=O)O.[2H]C([2H])([2H])Oc1cc(C)c2[nH]ccc2c1CN1CC[C@@H](C2CC2)C[C@H]1c1ccc(C(=O)O)cc1, the Tmax was 3.5 h (healthy humans, fed; oral, 200 mg, single dose, high-fat meal).
For CCOC(=O)N1C[C@@H](c2ccc(F)c(C#N)c2)N[C@@H](c2ccc(-c3ccccc3)cc2)C1, the logD was greater than 4.7 (shake-flask, 1-octanol/buffer; pH 7.4).
For CCn1cc(C(=O)N2CCOCC2)c(=O)c2cc(NC3Cc4ccccc4C3)cnc21, the Cmax was 5230 ng/mL (human female, fed, plasma; oral, 900 mg twice daily, day 1, tablet, arithmetic mean).
For CCCCCN1C[C@H](O)[C@@H](O)[C@H](O)[C@@H]1CO, “geometric mean brain concentration” read 37 ng/g (LC-MS/MS; Hexb-/- mice, male, brain; 30 mg/kg/day).
For CC[C@H](CO)N(CCN(N=O)[C@H](CC)CO)N=O, “revertant colonies per plate” read 26 ± 10 (Salmonella typhimurium; mutagenicity, Ames plate incorporation; TA98; 500 µg/plate, without S9, methanol).
CC[C@]1(O)C[C@H]2CN(CCc3c([nH]c4ccccc34)[C@@](C(=O)OC)(c3cc4c(cc3OC)N(C=O)[C@H]3[C@@](O)(C(=O)OC)[C@H](OC(C)=O)[C@]5(CC)C=CCN6CC[C@]43[C@@H]65)C2)C1 gave a viability of 28.4% and 38.6% and 25.6% (CHP-212 resistant subline R2 (heterozygous USP7 V517F); cell viability; 41.15 nM).
With Cc1ccc(N(C)C(=O)/C=C/c2ccco2)cc1 the licking latency was 19.4 ± 0.5 s (cold plate test; mouse; oral, 30 mg/kg single dose, 30 min).
With c1cc(-c2ccc3ncnc(Nc4ncco4)c3c2)nc(N2C[C@H]3C[C@@H]2CO3)n1 the CLint was 53 µL/min/mg (human liver microsomes).
For [O]=[Co].[O]=[Co][O][Co]=[O], “creatinine-corrected cobalt concentration” read 0.1 µg/µmol creatinine (rat, female, urine, 24-h collection; oral gavage, single, 300 mg/kg (220 mg Co/kg), day 2, vehicle 0.5% HPMC).
Cc1ccc([C@@H]2O[C@H](CO)[C@@H](O)[C@H](O)[C@H]2O)cc1Cc1ccc(-c2ccc(F)cc2)s1: “urinary magnesium excretion change” -0.671 mg (Japanese type 2 diabetes patients; 100 mg, day 3, 24 h urine collection; baseline: baseline).
With O=C(CC1OCCN(Cc2ccccc2)C1=O)Nc1ccc2c(c1)OCCO2 (stereo not drawn) the logD was 2.45 (octanol/buffer; pH 7.4).
CCN1/C(=C/C(C)=O)Sc2ccc(F)cc21 — result for “heart rate change”: 91.3 ± 23.6% (cynomolgus monkey; oral, 10 mg/kg, 4 h post-dose; baseline: pre-dose).
For O=C(O)CSc1nnc(Br)n1-c1ccc(C2CC2)c2ccccc12, the body weight was 25 g and 23.4 g and 26.4 g and 26.2 g and 24.2 g and 23.2 g (KM mouse, chronic hyperuricaemia model; dose not given, day 0).
The remaining compound of C/C(=N\c1ccc(O)cc1)c1cc2ccccc2n1C is reported as 97.4 ± 6.3% (processed rat plasma sample; 0.78 ng/mL, 24 h, room temperature, autosampler tray; baseline: nominal).
With CC(C)C[C@H](NC(=O)[C@H](CC(C)C)NC(=O)[C@H](Cc1c[nH]c2ccccc12)NC(=O)[C@H](CCC(=O)O)NC(=O)[C@@H](NC(=O)[C@H](Cc1ccccc1)NC(=O)[C@H](CCC(=O)O)NC(=O)[C@H](CCCCNC(=O)COCCOCCNC(=O)COCCOCCNC(=O)CC[C@H](NC(=O)CCCCCCCCCCCCCCCCCCC(=O)O)C(=O)O)NC(=O)[C@H](C)NC(=O)[C@H](CCCCN)NC(=O)[C@H](CCCCN)NC(=O)[C@H](CCC(=O)O)NC(=O)[C@H](CC(=O)O)NC(=O)[C@H](CC(C)C)NC(=O)[C@H](Cc1ccc(O)cc1)NC(=O)[C@H](CCCCN)NC(=O)[C@H](CO)NC(=O)[C@H](Cc1ccc(O)cc1)NC(=O)[C@H](CC(=O)O)NC(=O)[C@H](CO)NC(=O)[C@@H](NC(=O)[C@H](Cc1ccccc1)NC(=O)[C@@H](NC(=O)CNC(=O)[C@H](CCC(N)=O)NC(=O)C(C)(C)NC(=O)[C@@H](N)Cc1c[nH]cn1)[C@@H](C)O)[C@@H](C)O)C(C)C)C(=O)N[C@@H](CCC(=O)O)C(=O)NCC(=O)NCC(=O)N1CCC[C@H]1C(=O)N[C@@H](CO)C(=O)N[C@@H](CO)C(=O)NCC(N)=O the %AUC extrapolated was 0.9% (human, plasma; subcutaneous, 16 mg weekly, week 20, cohorts 1 and 2).
For CC(C)(C(=O)N1CCOc2c(C#N)cncc2C1)C(F)F, “subjects with adverse event” read 0% (item: Vascular disorders; human; oral, 15 mg twice daily, 14 days, multiple ascending dose).
The MRT(0-inf) of CC(=O)N(C)C1CCN(c2cc(F)cc(NC(=O)c3cc4c(F)ccc(C)c4[nH]3)c2)C1 (stereo not drawn) is reported as 0.7 h (CD1 mouse; intravenous, 1 mg/kg).
c1ccc(CN2CCCN3CCN(Cc4ccccc4)CCCN(CC2)Cc2cccc(n2)C3)cc1 gave an intact complex of 91% (64Cu complex; 48 h, 70 °C, added: DOTA excess).
The oral bioavailability of C[C@@H]1CCC[C@H](n2cnc(-c3cc(Cl)ccc3-n3cc(Cl)nn3)cc2=O)c2cc(ccn2)-c2c(cnn2C(F)F)NC1=O is reported as 14% (rabbit; oral, 20 mg/kg; baseline: 0.8 mg/kg intravenous).
O=C(Nc1nc2cccc(-c3ccc(CN4CCS(=O)(=O)CC4)cc3)n2n1)C1CC1: “treatment-emergent adverse events” 0% (item: blood calcium increased; rheumatoid arthritis patients; oral, 30 mg once daily, 4 weeks, any relatedness).
With CNC(=O)c1ccc(-c2cnc3ncc(Cc4ccc5ncccc5c4)n3n2)cc1F the Photosensitivity patients was 0% (Japanese patients; oral, 400 mg twice daily, any grade).
CCCCC1=NC2(CCCC2)C(=O)N1Cc1ccc(-c2ccccc2S(=O)(=O)Nc2noc(C)c2C)c(COCC)c1 has an AUC(0-inf) of 71.6 µg·h/mL (healthy adult volunteers, plasma; oral, 400 mg, single dose, fed, crushed tablet).
Under “free plasma concentration”, COc1cc2c(cc1OC)CN(CCc1ccc(NC(=O)c3cccc4c(=O)c5cccc(OC)c5[nH]c34)cc1)CC2 is recorded as 0.02 ng/mL (Sprague Dawley rats, plasma; iv infusion, 0.009 mg/h/kg, 4 h).
With C[C@H]1OC[C@H](C2CCCCC2)N[C@@H]1c1cccc(Cl)c1 the logD was greater than 4.7 (shake-flask, 1-octanol/buffer; pH 7.4).
Cl.[2H]C([2H])([2H])CC(=O)c1cnc(NC(=O)C2CC2)cc1Nc1cccc(-c2ncn(C([2H])([2H])[2H])n2)c1OC gave a half-life of 6.99 h (geometric mean; human; oral, 20 mg once daily, day 7, fasted, liquid, multiple dose).
Under “incidence of SIRS”, NC1(C(=O)N[C@@H](CCO)c2ccc(Cl)cc2)CCN(c2nc[nH]c3nccc2-3)CC1 is recorded as 0% (metastatic CRPC patients; 480 mg b.i.d., grade 3 to 4, treatment-related, added: enzalutamide 160 mg daily).
COc1ccc2c(=O)n(C)c(-c3ccccc3)nc2c1 gave a tissue/plasma ratio of 2.79 (Sprague-Dawley rat, male, kidney; oral, 30 mg/kg, 2 h; baseline: kidney over plasma).
CCO[C@H]1CCN(Cc2c(OC)cc(C)c3[nH]ccc23)[C@H](c2ccc(C(=O)O)cc2)C1 has an unbound Cmax of 1460 ng/mL (human severe hepatic impairment, plasma; oral, 200 mg single dose, median).
Cc1cc(Nc2cc3ncccc3c(N[C@@H]3C[C@H]4CC[C@@H](C3)N4CCC#N)n2)n[nH]1: “skin subcutaneous disorders incidence” 50% (healthy human subjects; oral, 100 mg, 2 weeks, single ascending dose).
CCOC(=O)[C@H](CCc1ccccc1)N[C@@H](C)C(=O)N1[C@H](C(=O)O)C[C@H]2CCCC[C@@H]21 has a freeze-thaw stability of 103 ± 14.7% (human plasma; 300 pg/mL, 3 cycles at -20 °C; baseline: nominal).
O=C(N[C@H](Cc1c[nH]c2ccccc12)C(=O)Nc1ccncc1)c1ccc(-c2ccc(F)c(C(F)(F)F)c2)cc1F gave a concentration of 50.8 µM (Swiss Webster mouse, female, liver; oral, 50 mg/kg, 8 h, 20% HPβCD vehicle).
With CN1CCCC1CCNS(=O)(=O)c1ccc2c(c1)CN(CC1CCCCC1)CC2 (stereo not drawn) the Cmin was 100 ng/g (wild-type mouse, pons/cerebellum; oral in diet, 0.02% in diet, 6 months).
Under “LDL cholesterol change”, CN(CCC#N)C1CCN(C(=O)Cn2cc(NC(=O)c3cnn4cccnc34)c(-c3cc(Cl)ccc3OC(F)F)n2)CC1 is recorded as -12.9 mg/dL (human, single ascending dose; 0.15 mg, day 4; baseline: baseline).
C=CC(=O)Nc1cc(Nc2nccc(-c3cn(C4CC4)c4ccccc34)n2)c(OC)cc1N(C)CCN(C)C gave an MCH of 15.3 ± 0.175 pg (BALB/c nude mice, LU0387 xenograft, blood; oral, 40 mg/kg).
The AUC(0-168 h) of Cc1cc(Nc2ccc(S(F)(F)(F)(F)F)cc2)n2nc(C(C)(F)F)nc2n1 is reported as 638 µg·h/mL (Plasmodium falciparum; LC-MS/MS; malaria patients, plasma; oral, 400 mg).
The Kd of O=C(O)CCc1ccno1 is reported as greater than 1000 µM (Ubiquitin carboxyl-terminal hydrolase 49, ZnF-UBD domain (USP49, Homo sapiens, UniProt Q70CQ1)).
CC[C@H](C)[C@H](NC(=O)[C@H](Cc1ccccc1)NC(=O)[C@H](CCC(=O)O)NC(=O)[C@H](CCCCNC(=O)COCCOCCNC(=O)COCCOCCNC(=O)CC[C@H](NC(=O)CCCCCCCCCCCCCCCCC(=O)O)C(=O)O)NC(=O)[C@H](C)NC(=O)[C@H](C)NC(=O)[C@H](CCC(N)=O)NC(=O)CNC(=O)[C@H](CCC(=O)O)NC(=O)[C@H](CC(C)C)NC(=O)[C@H](Cc1ccc(O)cc1)NC(=O)[C@H](CO)NC(=O)[C@H](CO)NC(=O)[C@@H](NC(=O)[C@H](CC(=O)O)NC(=O)[C@H](CO)NC(=O)[C@@H](NC(=O)[C@H](Cc1ccccc1)NC(=O)[C@@H](NC(=O)CNC(=O)[C@H](CCC(=O)O)NC(=O)C(C)(C)NC(=O)[C@@H](N)Cc1cnc[nH]1)[C@@H](C)O)[C@@H](C)O)C(C)C)C(=O)N[C@@H](C)C(=O)N[C@@H](Cc1c[nH]c2ccccc12)C(=O)N[C@@H](CC(C)C)C(=O)N[C@H](C(=O)N[C@@H](CCCNC(=N)N)C(=O)NCC(=O)N[C@@H](CCCNC(=N)N)C(=O)NCC(=O)O)C(C)C: “QTcF change from baseline” -1.6 ms (12-lead Holter ECG; healthy humans; subcutaneous, 1.5 mg once weekly, 18 h, steady state; baseline: placebo).
Cc1cc(NC2CCN(C(=O)OC3CCN(C(=O)/C=C/CN(C)C)C3)CC2)n2ncc(C(C)C)c2n1 (stereo not drawn): “patients with adverse event” 18% (Phase I dose escalation CTCAE v4.0, item: urinary tract infection; patients with advanced solid tumours; dose not given, TIW dosing any grade).
